Results collected from several papers.
Compare with care: the assays were run in different laboratories. “And” joins repeats or separate records; there may be more than shown. ± marks the error that the study gave.
HCRTR1: Orexin/Hypocretin receptor type 1 (HCRTR1, Homo sapiens, UniProt O43613)
Chain of UniProt O43613 (whole entry, looked up): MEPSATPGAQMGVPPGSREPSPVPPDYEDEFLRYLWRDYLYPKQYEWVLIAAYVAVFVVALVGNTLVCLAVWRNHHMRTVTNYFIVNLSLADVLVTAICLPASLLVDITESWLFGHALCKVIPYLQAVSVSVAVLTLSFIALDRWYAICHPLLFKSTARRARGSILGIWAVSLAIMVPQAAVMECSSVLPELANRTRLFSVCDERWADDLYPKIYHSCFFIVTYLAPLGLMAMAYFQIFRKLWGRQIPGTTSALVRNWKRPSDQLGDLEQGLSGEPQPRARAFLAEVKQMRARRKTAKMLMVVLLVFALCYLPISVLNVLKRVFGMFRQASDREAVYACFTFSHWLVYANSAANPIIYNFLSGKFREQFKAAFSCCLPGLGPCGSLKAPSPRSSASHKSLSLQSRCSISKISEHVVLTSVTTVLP
LRP1 CR3 domain: LRP1, CR3 domain (Homo sapiens, UniProt Q07954)
Chain of UniProt Q16678 (whole entry, looked up): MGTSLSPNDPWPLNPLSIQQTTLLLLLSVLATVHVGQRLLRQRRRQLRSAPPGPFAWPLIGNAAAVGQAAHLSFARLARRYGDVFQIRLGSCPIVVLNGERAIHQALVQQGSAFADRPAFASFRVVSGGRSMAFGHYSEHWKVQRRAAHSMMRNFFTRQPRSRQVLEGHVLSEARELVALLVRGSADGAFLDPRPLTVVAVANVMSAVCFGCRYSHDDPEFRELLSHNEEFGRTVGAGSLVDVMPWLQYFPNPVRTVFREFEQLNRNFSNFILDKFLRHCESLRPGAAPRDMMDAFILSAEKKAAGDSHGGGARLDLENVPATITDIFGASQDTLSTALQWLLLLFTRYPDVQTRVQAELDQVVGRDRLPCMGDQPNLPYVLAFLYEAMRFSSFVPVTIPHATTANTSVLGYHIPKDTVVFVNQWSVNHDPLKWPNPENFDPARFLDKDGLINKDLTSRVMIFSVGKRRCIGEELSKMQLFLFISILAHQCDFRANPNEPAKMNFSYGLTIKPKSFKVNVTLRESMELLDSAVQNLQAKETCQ
Chain of UniProt Q9UGC6 (whole entry, looked up): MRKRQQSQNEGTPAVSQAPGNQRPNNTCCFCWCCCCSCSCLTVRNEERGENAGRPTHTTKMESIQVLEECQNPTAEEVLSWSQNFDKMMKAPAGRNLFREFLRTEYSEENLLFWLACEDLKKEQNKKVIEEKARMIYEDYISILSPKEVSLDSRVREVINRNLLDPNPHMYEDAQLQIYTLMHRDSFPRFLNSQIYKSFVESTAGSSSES

Compound	target	assay	setting	Kd
COc1ccc(CC2c3cc(OC)c(OC)cc3CCN2CC(=O)Nc2cccc3ccccc23)cc1OC (stereo not drawn)	HCRTR1			0.732 ± 0.25 µM
CCCCCCCNCC(P(=O)(O)O)P(=O)(O)O	Farnesyl diphosphate synthase (Trypanosoma cruzi, UniProt Q8WS26)	binding, isothermal titration calorimetry	28 °C, first site, two-site model	0.0102 µM
NC(=O)C[C@H](NC(=O)C1(NC(=O)[C@H](Cc2ccc(C(C(=O)O)C(=O)O)cc2)NC(=O)C(=O)O)CCCCC1)C(=O)NCCCc1cccc2c(O)cccc12	Growth factor receptor-bound protein 2, SH2 (GRB2, Homo sapiens, UniProt P62993)	binding, SPR		0.132 µM
COC(=O)CNC(=O)CN1CCc2cc(OC)c(OC)cc2C1Cc1ccc(OC)c(OC)c1 (stereo not drawn)	HCRTR1			6.63 ± 0.35 µM
CSc1cc(-c2ccc(F)cc2)[nH]n1	Regulator of G-protein signaling 17 (Homo sapiens, UniProt Q9UGC6)	binding, NMR		5200 µM
CNC(=O)CNC(=O)CN1CCc2cc(OC)c(OC)cc2C1Cc1ccc(OC)c(OC)c1 (stereo not drawn)	HCRTR1			7.64 ± 1.1 µM
COC(=O)[C@@H](N)Cc1c[nH]cn1	LRP1 CR3 domain	tryptophan fluorescence titration	pH 5.5, CR3 domain, low ionic strength	1200 ± 70 µM
c1ccc2c(c1)ccc1nc3ccc4ccccc4c3cc12	Cytochrome P450 1B1 (CYP1B1, Homo sapiens, UniProt Q16678)	binding, fluorescence	pH 7.4	1.6 µM and < 2.5 µM
COc1ccc(CC2c3cc(OC)c(OC)cc3CCN2CC(=O)NC2CCCc3ccccc32)cc1OC (stereo not drawn)	HCRTR1			0.0411 ± 0.006 µM
CC(C)C[C@H](NC(=O)[C@H](CC(N)=O)NC(=O)[C@H](CCCNC(=N)N)NC(=O)[C@H](CC(=O)O)NC(=O)[C@H](C)NC(=O)[C@@H]1CCCN1C(=O)[C@@H]1CCCN1C(=O)[C@@H]1CCCN1)C(=O)N[C@@H](CCCCN)C(=O)N1CCC[C@H]1C(=O)N[C@@H](CC(=O)O)C(=O)N[C@@H](CCCNC(=N)N)C(=O)O	GRB2 (Homo sapiens, UniProt P62993)	binding, ITC	pH 8	444 µM
COC(=O)[C@@H](N)CCCN=C(N)N	LRP1 CR3 domain	tryptophan fluorescence titration	pH 7.4, 298 K, CR3 domain, ionic strength 0.17	780 ± 40 µM
COc1cccc2c1C(=O)c1c(O)c3c(c(O)c1C2=O)C[C@@](O)(C(C)=O)C[C@@H]3O[C@H]1C[C@H](N)[C@H](O)[C@H](C)O1	HIV-1 SL3 RNA stem-loop	binding, ESI-FTMS titration	pH 7.5	8.2 ± 0.9 µM
